Measured values pooled from the literature.
Lines come from different studies, so protocols differ. ± marks the error that the study gave.
PPARG ligand-binding domain: Peroxisome proliferator-activated receptor gamma, ligand-binding domain (PPARG, Homo sapiens, UniProt P37231)
Rhomboid protease AarA: Rhomboid protease AarA (Providencia stuartii, UniProt P46116)
HDAC1: Histone deacetylase 1 (HDAC1, Homo sapiens, UniProt Q13547)
Melanoma-associated antigen 4 MAGE homology domain: Melanoma-associated antigen 4, MAGE homology domain (Homo sapiens, UniProt P43358)
PPARG: Peroxisome proliferator-activated receptor gamma (PPARG, Homo sapiens, UniProt P37231)

`Cc1c(Cc2cccc(OC(C)(C)C(=O)O)c2)c2ccc(C(=O)N[C@@H](C)c3cccc(Br)c3)cc2n1C` has an IC50 of 4520 nM (PPARG ligand-binding domain; reporter gene, luciferase reporter; HEK293T, Gal4-PPARγ LBD).
With `C[C@@H](NC(=O)C(C(F)(F)F)C(F)(F)F)c1ccccc1` the IC50 was 23000 nM (Rhomboid protease AarA; enzyme activity, inhibitor, fluorescence).
`CCCCCC(=O)Nc1ccc(Nc2ncc(F)c(-c3cc(F)c4nc(C)n(C(C)C)c4c3)n2)cc1` has an IC50 of over 1000 nM (HDAC1; enzyme activity, inhibitor).
The IC50 of `CCCSc1nc(Sc2nc3ccccc3o2)c2nnn(CCO)c2n1` is reported as 2540 nM (Lysine-specific histone demethylase 1A (KDM1A, Homo sapiens, UniProt O60341); enzyme activity, inhibitor, fluorescence).
With `CC[C@H](C)[C@@H]1NC(=O)[C@H](Cc2ccc(O)cc2)NC(=O)CSC[C@@H](C(N)=O)NC(=O)[C@H](CC(N)=O)NC(=O)[C@H](Cc2c[nH]cn2)NC(=O)[C@H](Cc2ccc(O)cc2)NC(=O)[C@H](CC(=O)O)NC(=O)[C@H](CC(C)C)NC(=O)[C@H](CC(C)C)NC(=O)[C@H](CCCNC(=N)N)NC1=O` the IC50 was 84 ± 6.4 nM (Melanoma-associated antigen 4 MAGE homology domain; binding, inhibitor, TR-FRET displacement; added: Alexa647-MTP-1).
`OC[C@H]1O[C@@H](c2ccc(Cl)c(Cc3ccc(O[C@H]4CCOC4)cc3)c2)[C@H](O)[C@@H](O)[C@@H]1O` has an IC50 of 17.6 nM (Sodium/glucose cotransporter 2 (SLC5A2, Homo sapiens, UniProt P31639); transporter uptake, inhibitor, radiometric).
`CC(C)c1ccccc1[C@@H]1CCCN1C1CC2(CCN(c3ccc(C(=O)NS(=O)(=O)c4ccc(NC[C@H]5CC[C@](C)(O)CC5)c([N+](=O)[O-])c4)c(Oc4cnc5[nH]ccc5c4)c3)CC2)C1` gave an IC50 of over 10000 nM (Induced myeloid leukemia cell differentiation protein Mcl-1 (MCL1, Homo sapiens, UniProt Q07820); binding, inhibitor, TR-FRET competition).
The IC50 of `CC(=O)OC1CCC2(C)C(CCC3(C)C2CC=C2C4C(C)C(C)CCC4(C(=O)O)CCC23C)C1(C)C` (stereo not drawn) is reported as over 100000 nM (UDP-glucuronosyltransferase 2B17 (UGT2B17, Homo sapiens, UniProt O75795); enzyme activity, inhibitor).
`Cc1c(Cc2cccc(OC(C)C(=O)O)c2Cl)c2ccc(C(=O)NC(C)c3ccc(C(C)(C)C)cc3)cc2n1C` (stereo not drawn) has an IC50 of 15 nM (PPARG; ligand displacement, TR-FRET).
With `Cc1cc(NC(=O)C(C(F)(F)F)C(F)(F)F)ccn1` the IC50 was 56000 nM (Rhomboid protease AarA; enzyme activity, inhibitor, fluorescence).
With `Cc1nc2c(F)cc(-c3nc(Nc4ccc(C(=O)NCCCCCC(=O)NO)cc4)ncc3F)cc2n1C(C)C` the IC50 was 2.6 nM (HDAC1; enzyme activity, inhibitor).
The IC50 of `Cc1c(Cc2ccc(Cl)c(O[C@H](C)C(=O)O)c2)c2ccc(C(=O)N[C@@H](C)c3ccc(C(C)(C)C)cc3)cc2n1CC(C)C` is reported as 0.43 nM (PPARG; ligand displacement, TR-FRET).
`O=C(NCC1CCOCC1)c1ccccc1NC(=O)C(C(F)(F)F)C(F)(F)F` has an IC50 of 13000 nM (Rhomboid protease AarA; enzyme activity, inhibitor, fluorescence).
For `COC(=O)CCCCCCC(=O)Nc1ccc(Nc2ncc(F)c(-c3cc(F)c4nc(C)n(C(C)C)c4c3)n2)nc1`, the IC50 was over 1000 nM (HDAC1; enzyme activity, inhibitor).
The IC50 of `Cc1c(Cc2ccc(OC(C)C(=O)O)cc2)c2ccc(C(=O)N[C@@H](C)c3cccc(C(C)C)c3)cc2n1C` (stereo partly drawn) is reported as 54 nM (PPARG; ligand displacement, TR-FRET).
With `Fc1ccc(Nc2nc(NC3CCCCC3)c3cc(Br)ccc3n2)cc1F` the IC50 was 200 nM (Beta-2 adrenergic receptor (ADRB2, Homo sapiens, UniProt P07550, Q170L); β-arrestin2 recruitment, antagonist, BRET; HEK293; mutant Q170L, added: isoprenaline 1 µM).
`Cc1c(Cc2ccc(O[C@H](C)C(=O)O)c(Cl)c2)c2ccc(C(=O)N[C@@H](C)c3ccc(C(C)(C)C)cc3)cc2n1C` has an IC50 of 109 nM (PPARG; ligand displacement, TR-FRET).
`CC(C)(C)OC(=O)COc1ccccc1NC(=O)C(C(F)(F)F)C(F)(F)F` gave an IC50 of 2800 nM (Rhomboid protease AarA; enzyme activity, inhibitor, fluorescence).
`Cc1nc2cc(C(=O)N[C@@H](C)c3ccc(C(C)(C)C)cc3)ccc2n1Cc1cccc(OC(C)(C)C(=O)O)c1` gave an IC50 of 43400 nM (PPARG ligand-binding domain; reporter gene, luciferase reporter; HEK293T, Gal4-PPARγ LBD).
The IC50 of `CCCCN(CCc1ccccc1)CCc1cccc(O)c1` is reported as over 20000 nM (Delta-type opioid receptor (OPRD1, Homo sapiens, UniProt P41143); β-arrestin recruitment, antagonist).
`O=C(NCC1CCOCC1)c1n[nH]cc1NC(=O)c1c(F)cccc1F` gave an IC50 of 4.6 nM (Glycogen synthase kinase-3 alpha (GSK3A, Homo sapiens, UniProt P49840); target engagement in cells, BRET).
With `Cc1nn(-c2cccc(N)c2)c(=O)c2cnc(Nc3ccc(N4CCNCC4)cc3)nc12` the IC50 was over 10000 nM (Receptor tyrosine-protein kinase erbB-4 (ERBB4, Homo sapiens, UniProt Q15303); enzyme activity, inhibitor).
With `Cc1c(Cc2cccc(OCC(=O)O)c2)c2ccc(C(=O)N[C@@H](C)c3cccc(C(C)(C)C)c3)cc2n1C` the IC50 was 37200 nM (PPARG ligand-binding domain; reporter gene, luciferase reporter; HEK293T, Gal4-PPARγ LBD).
The IC50 of `COc1ccc(C(=O)c2c(C(=O)NCCCN(C)C)oc3ccc(Cl)cc3c2=O)cc1OC` is reported as 1580 nM (Growth hormone secretagogue receptor type 1 (GHSR, Homo sapiens, UniProt Q92847); ligand displacement, radioligand; cell membranes).
For `CCOc1cc(CN2CCC3(CC2)CN(c2ccc(C(=O)O)cc2)C(=O)N3)c(C2CC2)cc1C`, the IC50 was 67.6 nM (Somatostatin receptor type 5 (SSTR5, Homo sapiens, UniProt P35346, M116A); cAMP level, antagonist, GloSensor; AD293; M116A mutant, bandwidth 3.29, added: CST17 EC80 and forskolin).
With `Cc1c(Cc2cccc(OC(C)(C)C(=O)O)c2)c2ccc(C(=O)N[C@@H](C)c3cccc(C(C)(C)C)c3)cc2n1CC1CCC1` the IC50 was 6.61 nM (PPARG; ligand displacement, TR-FRET).
With `CCOc1ccc(NC(=O)C(C(F)(F)F)C(F)(F)F)cc1` the IC50 was 11000 nM (Rhomboid protease AarA; enzyme activity, inhibitor, fluorescence).
`CC1(F)CN(C(=O)Cn2c(=O)c(C(=O)NCc3ccc(Cl)cc3)cc3nc(N4CCN(CCN)C4=O)cnc32)C1` has an IC50 of over 40000 nM (Voltage-gated inwardly rectifying potassium channel KCNH2 (KCNH2, Homo sapiens, UniProt Q12809); ion current, automated patch clamp; CHO expressing hERG).
For `O=C(Nc1ccccc1)c1ccccc1NC(=O)C(C(F)(F)F)C(F)(F)F`, the IC50 was 1500 nM (Rhomboid protease AarA; enzyme activity, inhibitor, fluorescence).
For `O=C(CCCCc1ccc(OP(=O)(O)O)c(OP(=O)(O)O)c1)N1CCCCC1`, the IC50 was 1530 nM (Signal transducer and activator of transcription 5B, SH2 (STAT5B, Homo sapiens, UniProt P51692); ligand displacement, FP).
With `Cc1nnc(-c2ccc(CC(=O)NCCOCCOCC(=O)NC(CCN3C4CCC3CC(n3c(C)nnc3C(C)C)C4)c3ccccc3)cc2)nn1` (stereo not drawn) the IC50 was 427 nM (C-C chemokine receptor type 5 (CCR5, Homo sapiens, UniProt P51681); calcium mobilization, antagonist; HEK-293T; 2 h preincubation, top constrained to 1, added: 0.1 µM PSC-RANTES).
With `O=C1CC(c2ccccc2)N1S(=O)(=O)c1cccc(-c2ccccc2)c1` (stereo not drawn) the IC50 was 17000 nM (Rhomboid protease AarA; enzyme activity, inhibitor, fluorogenic peptide; 38 min pre-incubation).
With `CC[C@H](C)[C@@H]1NC(=O)[C@H](Cc2ccccc2)NC(=O)CCSCc2cccc(c2)CSCCNC(=O)[C@H](Cc2c[nH]cn2)NC(=O)[C@H](Cc2ccc(O)cc2)NC(=O)[C@H](CC(=O)O)NC(=O)[C@H](Cc2ccc(F)cc2)NC(=O)[C@H](CC(C)C)NC(=O)[C@H](CCCCN)NC1=O` the IC50 was 203 ± 90 nM (Melanoma-associated antigen 4 MAGE homology domain; binding, inhibitor, TR-FRET displacement; added: Alexa647-MTP-1).
